Measurements of several laboratories.
Compare with care: the assays were run in different laboratories. ± gives the spread as reported.

Molecule	organism	assay	test system	conditions	MIC
vancomycin	Enterococcus faecium		ATCC BAA-2317, VanA	16 h, 37 °C	250 µg/mL
Brc1cccc(NCc2ccc(Oc3ccccn3)cc2)c1	Mycobacterium tuberculosis		H37Rv, 7H9/ADC/Tween medium	1 weeks	35 µM
Cc1ccc(S(=O)(=O)N2C(=O)CSC2c2ccc(Cl)cc2)cc1 (stereo not shown)	Salmonella enterica	microbial growth, broth dilution	TYPHIMURIUM		32 µg/mL
Cc1ccc(NCc2ccc(Oc3ccccn3)cc2)cc1	Mycobacterium tuberculosis		H37Rv, 7H9/ADC/Tween medium	2 weeks	86 µM
CNC(C)C1CCC(N)C(OC2C(N)CC(N)C(OC3OCC(C)(O)C(NC)C3O)C2O)O1 (stereo not shown)	Mycolicibacterium smegmatis		wild type		0.12 µg/mL
Cc1[nH]c(C(=O)Nc2ccc(C(=O)O)cc2N2CCC[C@H](N)C2)c(Cl)c1Cl.Cl	Enterococcus faecium	microbial growth, broth dilution	ATCC35667		> 32 µg/mL
Cc1ccc(S(=O)(=O)N2C(=O)CSC2c2ccccc2Br)cc1 (stereo not shown)	Salmonella enterica	microbial growth, broth dilution	TYPHIMURIUM		32 µg/mL
COc1ccc(NCc2ccc(Oc3ccccn3)cc2)cc1	Mycobacterium tuberculosis		H37Rv, GAST-Fe medium	1 weeks, pH 6.6	41 µM
Cc1ccc(S(=O)(=O)N2C(=O)CSC2c2ccccc2C)cc1 (stereo not shown)	Salmonella enterica	microbial growth, broth dilution	TYPHIMURIUM		128 µg/mL
Cc1[nH]c(C(=O)Nc2ccc(C(=O)O)cc2N2CCCC(CN)C2)c(Cl)c1Cl.Cl (stereo not shown)	Enterococcus faecium	microbial growth, broth dilution	ATCC35667		16 to 32 µg/mL
CC1(C)SC2C(NC(=O)C(NC(=O)C3=C(O)CNC3=O)c3ccccc3)C(=O)N2C1C(=O)O (stereo not shown)	Escherichia coli	broth microdilution	BW25113, Mueller-Hinton broth		200 µg/mL
Fc1ccccc1NCc1ccc(Oc2ccccn2)cc1	Mycobacterium tuberculosis		H37Rv, GAST-Fe medium	1 weeks, pH 6.6	43 µM
CC1(C)SC2C(NC(=O)C(NC(=O)C3=C(O)C4(CC4)NC3=O)c3ccccc3)C(=O)N2C1C(=O)O (stereo not shown)	Escherichia coli	broth microdilution	BW25113, Mueller-Hinton broth	together with: CCCP 50 µg/mL	50 µg/mL
pneumocandin B0	Candida tropicalis	broth microdilution, resazurin	ATCC 750	24 h, 35 °C	1.6 µg/mL
Brc1ccc(NCc2ccc(Oc3ccccn3)cc2)cc1	Mycobacterium tuberculosis		H37Rv, GAST-Fe medium	2 weeks, pH 6.6	70 µM
CCOC(=O)c1c(N)csc1-c1cn(-c2ccccc2)nc1-c1ccc(C)cc1	Bacillus subtilis	broth microdilution	clinical urinary isolate	compound gamma-irradiated 20 kGy	0.124 ± 0.3 µg/mL
CCc1cc(=O)c2c(OCC(O)CN3CCCCC3)c3ccoc3c(OC)c2o1 (stereo not shown)	Staphylococcus epidermidis	broth microdilution	ATCC 12228	19 h, 35 °C	> 256 µg/mL
CC1(C)SC2C(NC(=O)C(NC(=O)C3=C(O)C(Cc4ccco4)NC3=O)c3ccccc3)C(=O)N2C1C(=O)O (stereo not shown)	Escherichia coli	broth microdilution	BW25113, Mueller-Hinton broth	18 h, without clavulanic acid	6.25 µg/mL
O=c1ccc2ncc(=O)n3c2n1C[C@H]3CN1CCC(NCc2cc3c(cn2)OCCC3)CC1	Salmonella enterica	microbial growth, broth dilution	ATCC14028 TYPHIMURIUM		2 to 8 µg/mL
CC1(C)S[C@@H]2[C@H](NC(=O)[C@H](N)c3ccccc3)C(=O)N2[C@H]1C(=O)O	Lactobacillus delbrueckii subsp. lactis	broth microdilution	ATCC 7830, MRS medium	24 h, 37 °C	0.62 ± 0.3 µg/mL
Cc1ccc(S(=O)(=O)N2C(=O)CSC2c2cccc([N+](=O)[O-])c2)cc1 (stereo not shown)	Salmonella enterica	microbial growth, broth dilution	TYPHIMURIUM		32 µg/mL
Cc1ccccc1NCc1ccc(Oc2ccccn2)cc1	Mycobacterium tuberculosis		H37Rv, GAST-Fe medium	1 weeks, pH 6.6	43 µM
